# Published values of several laboratories.
# Numbered parts are unrelated; each lists some results of a single study. Positions count from the first letter of the parent shown.
# Chain of UniProt Q9C0B0 (30-357, looked up): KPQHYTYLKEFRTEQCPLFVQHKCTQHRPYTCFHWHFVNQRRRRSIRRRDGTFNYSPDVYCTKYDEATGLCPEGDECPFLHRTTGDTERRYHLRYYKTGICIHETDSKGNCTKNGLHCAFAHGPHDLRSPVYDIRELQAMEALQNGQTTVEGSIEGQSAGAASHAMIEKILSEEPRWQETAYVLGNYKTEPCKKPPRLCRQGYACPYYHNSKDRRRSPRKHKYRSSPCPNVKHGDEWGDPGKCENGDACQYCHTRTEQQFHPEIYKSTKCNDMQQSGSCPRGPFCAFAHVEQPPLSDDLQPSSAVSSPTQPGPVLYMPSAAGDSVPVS

# Sample 1
# Target: RNA binding protein fox-1 homolog 2, RRM domain, GST-SBP tag (RBFOX2, Homo sapiens, UniProt O43251-10, residues 100-194)
# Method: RNA Bind-n-Seq
# Form: RNA
# Sample: in vitro
# Concentration: 365 nM
# Setting: natural RNA segment, single round, ends assumed
# Relative to: no-protein control
# Reading: higher = stronger binding
# Construct (chain): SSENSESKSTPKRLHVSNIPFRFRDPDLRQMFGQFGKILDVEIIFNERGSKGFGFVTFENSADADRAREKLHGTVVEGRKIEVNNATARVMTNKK
Oligonucleotide,RBNS enrichment (R)
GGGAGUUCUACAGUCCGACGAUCAUACUUAGAUGUCUAACUGUUUAAUUGCUACAGAGCUUUAUAGAUAUUUAGAGAAAAGACUUAAUCAAUUAGUAAAUAAAAUUGCCUAUGGCAGGAUUCUUUCUUGAAUUUGGAAUUCUCGGGUGCCAA,1.3
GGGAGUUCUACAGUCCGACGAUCCCGAGUUCUUAAAUCCAGGUAGGGAACUCACUCUUCUUUCUUCUCUGGACCUAAUUGGGCAUUGGGCUUUAGUGAGACCACAGACCAGGCCCGUCUCUCCUGUAGGCUUUUGGAAUUCUCGGGUGCCAA,0.414
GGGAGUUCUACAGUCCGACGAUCGCAGAGGUGGGACACUGAGGUGCUUUGCUUAAAUUUCAAAGCUUGCAUAUAUUCAUGUAAAUAUAUGAAUAUAUGACGUCUAUAAUAGACGUCAGCAAUUCAUUCGUCUAUGGAAUUCUCGGGUGCCAA,0.498
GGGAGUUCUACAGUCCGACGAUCAUCCUCUUACUCAUUUUAAGACGUAGGAAACUCAAUAUUCUUCUCUAACCAUAUACGAUAGGGCUCUUCGCUUUUAAUGAUAUCUGGGAUUUCUGUGGAACUUGGCAAAUUGGAAUUCUCGGGUGCCAA,0.329
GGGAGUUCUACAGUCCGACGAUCCCUCACGGGUCACCCCAGCCCUCUGCAAAGCCUUGCCGUGCUAUGUUUCAGGUUCACGUUCAGCUCUGACCUUGAGUUCAUUUCCAGUGCUUGCCUUCUCUCCAAGGCCAUGGAAUUCUCGGGUGCCAA,0.485
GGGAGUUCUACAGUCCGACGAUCCUGAGUCCUGACAAUUGUAUCCCGGUUCCCCAGGGGACAGUCUGGGUCCCUCUCUGGUCUGACGCUCCCUAUAGGUUCCACCGCACGACAGCCUGUCCAUCAAAACUUGUUGGAAUUCUCGGGUGCCAA,2.86
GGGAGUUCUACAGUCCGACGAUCCGUGACUCCCGCCUCCUCCCUGUGCUCUCUGGCUCUGGACUGUGACUGCGCCUGGAUUCUGCCAUUGCGACACAUUUUUGUGCCUUUCAGCCCCUGGUGUCUGCAGUGGGUGGAAUUCUCGGGUGCCAA,0.334
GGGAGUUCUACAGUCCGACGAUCCCAGACGUGAGACAAACAAGGACUUUUUUUUUUAUAUAGAGCCAUCCAUAAAAUCCUAAGCCCUUUUAUUAAUGUAUAACCAGGAGAACAUCUGUGCCAACGGUUGGACUUGGAAUUCUCGGGUGCCAA,0.501
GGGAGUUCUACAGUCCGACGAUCUCAAAGGCGAUUUAUCACAUGUAUAGAACAGGCCAAGUGUAGAAAAACAUAGAAGUCAUUGUUAGUCUUGAAUUCAGCAAGCGUUAAUCAAUCUAUAUUUAAUUCAGUUCUGGAAUUCUCGGGUGCCAA,0.547
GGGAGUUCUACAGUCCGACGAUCGUUAUAGUCAGCUGAUAGAUUGAUGUGGCUGAAAACAGGACCGAGUGAACUGAUGCUCCCACCUGGGUGCCUCCAUGGCUUCCUUGAGCAACUGUCCCUAAGAUGCUUUCUGGAAUUCUCGGGUGCCAA,0.521
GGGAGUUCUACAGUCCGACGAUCUUGCAGGCUGGGCGCGGUAGCUCAUGUCUGUAAUCCCAGCACUUUGGGAGGCCGAGGUGGGUGUAUCAGUUGAGGUCAGGAGUUGGAGACCAGUCAGCCAGUUAGUAGAAUGGAAUUCUCGGGUGCCAA,1.24
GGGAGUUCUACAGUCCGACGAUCAUCCGUUCUCAAACUCCGGUGUGCCCACAUCUGCCUCCUCACCAGCCUGGUCUGUAUUUAAAGCUUUUGAGACCCAAUAAAAUAGUACCUGCUGUCUGCAGCCUUACUGUUGGAAUUCUCGGGUGCCAA,0.494

# Sample 2
# Target: Histone acetyltransferase KAT6A, winged helix 2, GST fusion (KAT6A, Homo sapiens, UniProt Q92794, residues 85-181)
# Method: protein binding microarray
# Form: double-stranded DNA, one strand shown
# Sample: in vitro
# Concentration: not given
# Setting: 8-mer, flanks averaged, mean of 2 arrays, mostly near background
# Relative to: not given
# Reading: higher = stronger binding
# Target sequence (chain): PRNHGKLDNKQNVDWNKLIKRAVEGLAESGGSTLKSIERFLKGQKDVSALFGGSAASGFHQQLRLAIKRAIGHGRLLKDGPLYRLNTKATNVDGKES
Oligonucleotide,E-score
AGCTGTCG,-0.186
GGGTGATA,-0.106
GCCGTAAA,0.0748
CGTGGTCC,0.0153
GGCCTGCA,0.013
GCGTGTCA,0.146
GCCAAAGC,-0.0995
CCTTGACG,-0.0733
CCCTATAA,-0.306
GATCTGGA,0.0873
CAGCCCAC,0.13
CAGCGCGC,0.125
CGCATAAC,-0.0603
ACAACACG,-0.124
CCGACAAG,0.0929
ATACTTCG,0.0271
GGGCAGCA,0.0384
TACGCGCA,0.124
CCAGGGGG,0.215
CGTCCGTC,-0.126
CTCTGGGC,0.219

# Sample 3
# Target: CCNF, cyclin fold, Cln2 fusion (human)
# Method: yeast growth competition, sequencing
# Sample: yeast
# Setting: strong parent motif
# Relative to: not given
# Reading: higher = stronger binding
# Starting sequence: KIF20B docking peptide (human); KRAKRKLYTSEIS
Variant,normalised enrichment score
KRAKRKLYASEIS [T9A],1.35
KRAARKLYTSEIS [K4A],1.81
ARAKRKLYTSEIS [K1A],2.74
KRAKRKLATSEIS [Y8A],0.159
KRAKRALYTSEIS [K6A],1.09
KAAKRKLYTSEIS [R2A],1.88

# Sample 4
# Target: ABI1, truncated, D143A, DHFR fusion (Arabidopsis thaliana)
# Method: DHFR PCA, deep sequencing
# Sample: yeast
# Setting: methotrexate growth selection, single substitutions
# With: (+)-ABA 1.4 µM
# Relative to: wild-type fitted maximum
# Reading: higher = stronger binding
# Starting sequence: PYL1, truncated, DHFR fusion (Arabidopsis thaliana); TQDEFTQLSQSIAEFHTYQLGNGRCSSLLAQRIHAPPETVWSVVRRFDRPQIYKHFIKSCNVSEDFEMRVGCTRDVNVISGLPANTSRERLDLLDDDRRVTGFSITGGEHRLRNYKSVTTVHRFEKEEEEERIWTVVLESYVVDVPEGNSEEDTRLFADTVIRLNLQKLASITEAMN; partner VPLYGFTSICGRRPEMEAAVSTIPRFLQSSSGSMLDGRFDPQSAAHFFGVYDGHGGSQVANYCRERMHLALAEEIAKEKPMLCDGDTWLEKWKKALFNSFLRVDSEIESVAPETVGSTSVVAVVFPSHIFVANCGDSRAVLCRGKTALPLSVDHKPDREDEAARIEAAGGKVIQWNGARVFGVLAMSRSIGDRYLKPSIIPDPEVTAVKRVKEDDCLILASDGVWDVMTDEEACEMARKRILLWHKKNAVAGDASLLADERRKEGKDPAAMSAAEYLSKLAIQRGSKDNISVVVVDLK
Variant,relative binding score [%]
V136K,7.56
V70H,-2.74
I33F,-5.72
D65Y,14.1
R46A,39.6
K116C,10.2
S80C,18.4
S87C,20.3
Q31W,-2.44
T73K,26.5
C60F,0.662
H16I,-4.02
R32Q,40.9
K168M,31
N22S,66.5
D92V,4.96

# Sample 5
# Target: NFE2L1, bZIP domain (human)
# Method: DHFR protein complementation
# Sample: yeast
# Setting: single substitutions, most at no-binding floor
# Relative to: wild-type JUN-FOS pair
# Reading: higher = stronger binding
# Starting sequence: JUN, bZIP domain (human); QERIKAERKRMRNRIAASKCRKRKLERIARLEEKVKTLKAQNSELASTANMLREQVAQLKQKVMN; partner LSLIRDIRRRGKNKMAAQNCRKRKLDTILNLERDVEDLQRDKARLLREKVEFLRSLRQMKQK
Variant,binding fitness
L45V,-1.53 natural log
Q58P,-1.54 natural log
R30P,-1.48 natural log
I28R,-1.2 natural log
E32D,-1.54 natural log
K39I,-1.46 natural log
K36A,-1.45 natural log
L31K,-1.53 natural log
L45E,-1.6 natural log
E44P,-1.54 natural log
L52G,-1.49 natural log
K34T,-1.45 natural log
M51R,-1.47 natural log
I28F,-1.43 natural log
K39C,-1.55 natural log
T37A,-1.39 natural log
E54S,-1.51 natural log
L45D,-1.52 natural log
L31C,-1.47 natural log
S43Y,-1.44 natural log
I28K,-1.57 natural log
A40E,-1.48 natural log
L52H,-1.54 natural log
R53P,-1.52 natural log
K36H,-1.47 natural log

# Single results of other studies
Oligonucleotide,target,assay,system,setting,scale,endpoint,value
GGGAGUUCUACAGUCCGACGAUCAAUAAUGAACCGUAUUAAAGAAACAUUCUCGUCUUCCUUUACCUUUAAUCCCCUAAUACCCCGUCUACUUUUUAAAUUUUCAGACUUCACUGCUUUUUGAAUUCAUAAUUCUAAUUUUCACAACAGAGGAUUGAGCAUCA,"RING finger protein unkempt homolog, zinc fingers 1-6, SBP tag (UNK, Homo sapiens, UniProt Q9C0B0, residues 30-357)",RNA Bind-n-Seq,"RNA, in vitro","100 nM, RNA with constant flanks, ends assumed","relative to: input RNA pool, higher = stronger binding",bound/input enrichment,0.619 ratio

# Repeated from above (sample 1):
Oligonucleotide,RBNS enrichment (R)
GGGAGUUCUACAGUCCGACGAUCAUACUUAGAUGUCUAACUGUUUAAUUGCUACAGAGCUUUAUAGAUAUUUAGAGAAAAGACUUAAUCAAUUAGUAAAUAAAAUUGCCUAUGGCAGGAUUCUUUCUUGAAUUUGGAAUUCUCGGGUGCCAA,1.3
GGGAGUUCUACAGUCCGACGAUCCCGAGUUCUUAAAUCCAGGUAGGGAACUCACUCUUCUUUCUUCUCUGGACCUAAUUGGGCAUUGGGCUUUAGUGAGACCACAGACCAGGCCCGUCUCUCCUGUAGGCUUUUGGAAUUCUCGGGUGCCAA,0.414
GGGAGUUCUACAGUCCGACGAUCGCAGAGGUGGGACACUGAGGUGCUUUGCUUAAAUUUCAAAGCUUGCAUAUAUUCAUGUAAAUAUAUGAAUAUAUGACGUCUAUAAUAGACGUCAGCAAUUCAUUCGUCUAUGGAAUUCUCGGGUGCCAA,0.498
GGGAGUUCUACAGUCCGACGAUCAUCCUCUUACUCAUUUUAAGACGUAGGAAACUCAAUAUUCUUCUCUAACCAUAUACGAUAGGGCUCUUCGCUUUUAAUGAUAUCUGGGAUUUCUGUGGAACUUGGCAAAUUGGAAUUCUCGGGUGCCAA,0.329
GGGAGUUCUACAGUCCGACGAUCCCUCACGGGUCACCCCAGCCCUCUGCAAAGCCUUGCCGUGCUAUGUUUCAGGUUCACGUUCAGCUCUGACCUUGAGUUCAUUUCCAGUGCUUGCCUUCUCUCCAAGGCCAUGGAAUUCUCGGGUGCCAA,0.485
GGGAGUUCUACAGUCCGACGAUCCUGAGUCCUGACAAUUGUAUCCCGGUUCCCCAGGGGACAGUCUGGGUCCCUCUCUGGUCUGACGCUCCCUAUAGGUUCCACCGCACGACAGCCUGUCCAUCAAAACUUGUUGGAAUUCUCGGGUGCCAA,2.86
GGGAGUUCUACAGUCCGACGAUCCGUGACUCCCGCCUCCUCCCUGUGCUCUCUGGCUCUGGACUGUGACUGCGCCUGGAUUCUGCCAUUGCGACACAUUUUUGUGCCUUUCAGCCCCUGGUGUCUGCAGUGGGUGGAAUUCUCGGGUGCCAA,0.334
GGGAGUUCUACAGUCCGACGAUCCCAGACGUGAGACAAACAAGGACUUUUUUUUUUAUAUAGAGCCAUCCAUAAAAUCCUAAGCCCUUUUAUUAAUGUAUAACCAGGAGAACAUCUGUGCCAACGGUUGGACUUGGAAUUCUCGGGUGCCAA,0.501
